Results gathered from unrelated publications.
Each line is one published result; not all experiments were run side by side. ± marks the error that the study gave. Converted amounts (≈) assume the structure as drawn.

`CCCC[C@H](NC(=O)COCCOCCNC(=O)CN1CCN(CC(=O)O)CCN(CC(=O)O)CC1)C(=O)N[C@H]1CC(=O)NCCCC[C@@H](C(N)=O)NC(=O)[C@H](Cc2c[nH]c3ccccc23)NC(=O)[C@H](CCCNC(=N)N)NC(=O)[C@@H](Cc2ccccc2)NC(=O)[C@H](Cc2c[nH]cn2)NC1=O` [copper-64 labelled] gave a tissue uptake of 0.26 ± 0.12 %ID/g (C57 mice, spleen; intravenous, 0.37 MBq, 2 h).
`COC(=O)[C@H](CSSC(C)(C)[C@H](NC(=O)[C@H](CCC(=O)NC[C@H](O)[C@@H](O)[C@H](O)[C@H](O)CO)NC(=O)[C@H](CCC(=O)O)NC(=O)[C@H](CCC(=O)NC[C@H](O)[C@@H](O)[C@H](O)[C@H](O)CO)NC(=O)[C@H](CCC(=O)O)NC(=O)[C@H](CCC(=O)NC[C@H](O)[C@@H](O)[C@H](O)[C@H](O)CO)NC(=O)CC[C@H](NC(=O)c1ccc(NCc2cnc3nc(N)[nH]c(=O)c3n2)cc1)C(=O)O)C(=O)O)NC(=O)CC[C@H](NC(=O)c1ccc(NCc2cnc3nc(N)[nH]c(=N)c3n2)cc1)C(=O)O` has a Tmax of about 30 min (Lewis rat, female, plasma; subcutaneous, 500 nmol/kg).
Under “plasma protein binding”, `CCCC[C@@H]1NC(=O)[C@@H](CC(C)C)NC(=O)[C@H](CCCCNC(=O)CN2CCN(CC(=O)O)CCN(CC(=O)O)CC2)NC(=O)[C@@H](CO)NC(=O)[C@H](Cc2c[nH]cn2)NC(=O)[C@@H](Cc2c[nH]c3ccccc23)NC1=O` [copper-64 labelled] is recorded as 81% (refers to: 64Cu; mouse plasma; 37 °C).
With `CC(C)C[C@H](NC(=O)[C@H](Cc1ccc(O)cc1)NC(=O)[C@@H](CCCNC(=N)N)NC(=O)[C@@H](CO)NC(=O)[C@H](Cc1ccccc1)NC(=O)[C@H](CC1CCCCC1)NC(=O)[C@H](CC(=O)O)NC(=O)CN1CCN(CC(=O)O)CCN(CC(=O)O)CCN(CC(=O)O)CC1)C(=O)N[C@@H](Cc1c[nH]c2ccccc12)C(=O)N[C@@H](CO)C(=O)O` [copper-64 labelled] the plasma half-life was 8.5 min (radio-HPLC; human; intravenous, 200 MBq).
With `CCN(CC)CCSC(=S)N1CCN(C(=O)/C=C/c2coc3ccc(OC)cc3c2=O)CC1` the curative effect was 58.5 ± 1.6% (tomato spotted wilt virus; viral infection, half-leaf method; Nicotiana glutinosa; 500 µg/mL).
`CC[C@@]1(OC(=O)CCCCCCCCCCCNC(=O)C[C@H](N)C(=O)N[C@@H](CCC(=O)N[C@@H](CCC(=O)N[C@@H](CCC(=O)N[C@@H](CCC(=O)O)C(=O)O)C(=O)O)C(=O)O)C(=O)O)C(=O)OCc2c1cc1n(c2=O)Cc2cc3ccccc3nc2-1` gave an aqueous solubility of 76 mg/mL (≈ 64.6 mM) (PBS; pH 7.4).
`CN1C(=O)[C@@H](Cc2ccc(O)cc2)NC(=O)CNC(=O)[C@H](Cc2ccc3ccccc3c2)NC(=O)[C@H](CCCNC(=N)N)NC(=O)[C@H]1CCCNC(=O)c1ccc(CNC(=O)CN2CCN(CC(=O)O)CCN(CC(=O)O)CCN(CC(=O)O)CC2)cc1` [gallium-68 labelled]: “absorbed dose coefficient” 0.0132 mGy/MBq (adult reference man, from C57BL/6 mice data, gall bladder wall).
The tissue uptake of `CCCC[C@H](NC(=O)CNC(=O)CNC(=O)CN1CCN(CC(=O)O)CCN(CC(=O)O)CCN(CC(=O)O)CC1)C(=O)N[C@H]1CC(=O)NCCCC[C@@H](C(N)=O)NC(=O)[C@H](Cc2c[nH]c3ccccc23)NC(=O)[C@H](CCCNC(=N)N)NC(=O)[C@@H](Cc2ccccc2)NC(=O)[C@H](Cc2c[nH]cn2)NC1=O` [lutetium-177 labelled] is reported as 0.73 ± 0.1 %ID/g (C57 mouse, female, liver; intravenous, 0.037 MBq, 2 h).
Under “MIC of colistin”, `Oc1cc(C(F)(F)F)ccc1-c1nc2c(C(F)(F)F)cc(C(F)(F)F)cc2[nH]1` is recorded as 0.125 µg/mL (Klebsiella pneumoniae; colistin potentiator; B9; 5 µM).
`N=C(N)NCCC[C@@H]1NC(=O)[C@H](CCCCNC(=O)CNC(=O)CNC(=O)CNC(=O)CC[C@H](NC(=O)CNC(=O)CNC(=O)CNC(=O)CC[C@H](NC(=O)CN2CCN(CC(=O)O)CCN(CC(=O)O)CCN(CC(=O)O)CC2)C(=O)NCC(=O)NCC(=O)NCC(=O)N[C@@H](CCC(=O)NCC(=O)NCC(=O)NCC(=O)NCCCC[C@@H]2NC(=O)[C@@H](Cc3ccccc3)NC(=O)[C@H](CC(=O)O)NC(=O)CNC(=O)[C@H](CCCNC(=N)N)NC2=O)C(=O)NCC(=O)NCC(=O)NCC(=O)NCCCC[C@@H]2NC(=O)[C@@H](Cc3ccccc3)NC(=O)[C@H](CC(=O)O)NC(=O)CNC(=O)[C@H](CCCNC(=N)N)NC2=O)C(=O)NCC(=O)NCC(=O)NCC(=O)NCCCC[C@@H]2NC(=O)[C@@H](Cc3ccccc3)NC(=O)[C@H](CC(=O)O)NC(=O)CNC(=O)[C@H](CCCNC(=N)N)NC2=O)NC(=O)[C@@H](Cc2ccccc2)NC(=O)[C@H](CC(=O)O)NC(=O)CNC1=O` [indium-111 labelled] gave a tissue uptake of 0.13 ± 0.07 %ID/g (female athymic nu/nu mice, brain; intravenous, 4 h).
`CC(C)C[C@H](NC(=O)[C@@H](CCCCNC(=O)CCCCCNC(=O)CN1CCN(CC(=O)O)CCN(CC(=O)O)CCN(CC(=O)O)CC1)NC(=O)[C@H](Cc1ccc(O)cc1)NC(=O)[C@H](CO)NC(=O)[C@H](Cc1c[nH]c2ccccc12)NC(=O)[C@H](Cc1cnc[nH]1)NC(=O)[C@@H]1CCC(=O)N1)C(=O)N[C@@H](CCCNC(=N)N)C(=O)N1CCC[C@H]1C(=O)NCC(N)=O` [indium-111 labelled] has a tissue uptake of 0.12 ± 0.03 %ID/g (female athymic nude mouse, muscle; intravenous, 0.037 MBq, 4 h).
The remaining intact of `C[C@@H](O)[C@@H]1NC(=O)[C@H](CCCCN)NC(=O)[C@@H](Cc2c[nH]c3ccccc23)NC(=O)[C@H](Cc2ccc(O)cc2)NC(=O)[C@@H](NC(=O)[C@@H](Cc2ccccc2)NC(=O)CN2CCN(CC(=O)O)CCN(CC(=O)O)CCN(CC(=O)O)CC2)CSSC[C@@H](C(=O)N[C@H](CO)[C@@H](C)O)NC1=O` [gallium-67 labelled] is reported as 94.4 ± 0.2% (radio-TLC; mouse plasma; 3 h, 37 °C, 67Ga-labelled).
The tissue uptake of `CCCC[C@H](NC(=O)CNC(=O)CNC(=O)CN1CCN(CC(=O)O)CCN(CC(=O)O)CC1)C(=O)N[C@H]1CC(=O)NCCCC[C@@H](C(N)=O)NC(=O)[C@H](Cc2c[nH]c3ccccc23)NC(=O)[C@H](CCCNC(=N)N)NC(=O)[C@@H](Cc2ccccc2)NC(=O)[C@H](Cc2c[nH]cn2)NC1=O` [technetium-99m labelled] is reported as 0.13 ± 0.02 %ID/g (C57 mouse, brain; iv, 0.037 MBq, 0.5 h).
`Cc1cc(-c2ccc(NC(=O)[C@H](CCCCNC(=O)CCOCCOCCC(=O)N[C@H](Cc3ccccc3)C(=O)N[C@H]3CSSC[C@@H](C(=O)N[C@H](C(=O)O)[C@@H](C)O)NC(=O)[C@H]([C@@H](C)O)NC(=O)[C@H](CCCCN)NC(=O)[C@@H](Cc4c[nH]c5ccccc45)NC(=O)[C@H](Cc4ccc(O)cc4)NC3=O)NC(=O)CN3CCN(CC(=O)O)CCN(CC(=O)O)CCN(CC(=O)O)CC3)c(C)c2)ccc1N=Nc1ccc2c(S(=O)(=O)O)cc(S(=O)(=O)O)c(N)c2c1O` [lutetium-177 labelled] gave a half-life ratio of 1.8 fold (patients with metastatic neuroendocrine tumours, lymph node metastases; reference: compound over 177Lu-EB-TATE).
The inactivation effect of `CCN(CC)CCSC(=S)N1CCN(C(=O)/C=C/c2coc3ccccc3c2=O)CC1` is reported as 62.2 ± 1.9% (tomato spotted wilt virus; viral infection, half-leaf method; Nicotiana glutinosa; 500 µg/mL).

For quick reference, copied from above:
The tissue uptake of `CCCC[C@H](NC(=O)CNC(=O)CNC(=O)CN1CCN(CC(=O)O)CCN(CC(=O)O)CC1)C(=O)N[C@H]1CC(=O)NCCCC[C@@H](C(N)=O)NC(=O)[C@H](Cc2c[nH]c3ccccc23)NC(=O)[C@H](CCCNC(=N)N)NC(=O)[C@@H](Cc2ccccc2)NC(=O)[C@H](Cc2c[nH]cn2)NC1=O` [technetium-99m labelled] is reported as 0.13 ± 0.02 %ID/g (C57 mouse, brain; iv, 0.037 MBq, 0.5 h).
`Cc1cc(-c2ccc(NC(=O)[C@H](CCCCNC(=O)CCOCCOCCC(=O)N[C@H](Cc3ccccc3)C(=O)N[C@H]3CSSC[C@@H](C(=O)N[C@H](C(=O)O)[C@@H](C)O)NC(=O)[C@H]([C@@H](C)O)NC(=O)[C@H](CCCCN)NC(=O)[C@@H](Cc4c[nH]c5ccccc45)NC(=O)[C@H](Cc4ccc(O)cc4)NC3=O)NC(=O)CN3CCN(CC(=O)O)CCN(CC(=O)O)CCN(CC(=O)O)CC3)c(C)c2)ccc1N=Nc1ccc2c(S(=O)(=O)O)cc(S(=O)(=O)O)c(N)c2c1O` [lutetium-177 labelled] gave a half-life ratio of 1.8 fold (patients with metastatic neuroendocrine tumours, lymph node metastases; reference: compound over 177Lu-EB-TATE).
The inactivation effect of `CCN(CC)CCSC(=S)N1CCN(C(=O)/C=C/c2coc3ccccc3c2=O)CC1` is reported as 62.2 ± 1.9% (tomato spotted wilt virus; viral infection, half-leaf method; Nicotiana glutinosa; 500 µg/mL).
